Measurements from different studies.
Parts stem from different laboratories: compare values within a part only. Positions count from the first letter of the parent shown.
Sequence of UniProt Q99640 (whole entry, looked up): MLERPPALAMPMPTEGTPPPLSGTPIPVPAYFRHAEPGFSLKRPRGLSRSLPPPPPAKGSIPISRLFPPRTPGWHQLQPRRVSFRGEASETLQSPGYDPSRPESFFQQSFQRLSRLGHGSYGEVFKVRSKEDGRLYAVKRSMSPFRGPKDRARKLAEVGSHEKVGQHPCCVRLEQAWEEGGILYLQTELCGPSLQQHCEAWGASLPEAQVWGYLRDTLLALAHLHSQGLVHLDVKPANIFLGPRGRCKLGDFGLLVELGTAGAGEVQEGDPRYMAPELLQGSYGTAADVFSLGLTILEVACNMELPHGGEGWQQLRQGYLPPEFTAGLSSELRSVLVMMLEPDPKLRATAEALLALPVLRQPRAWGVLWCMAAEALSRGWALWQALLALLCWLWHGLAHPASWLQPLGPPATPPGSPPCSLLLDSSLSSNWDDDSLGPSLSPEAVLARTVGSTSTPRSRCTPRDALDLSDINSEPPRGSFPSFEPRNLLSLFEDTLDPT

Series 1 — target: CCND2, cyclin fold, Cln2 fusion (human); technique: yeast growth competition, sequencing; medium: yeast; notes: weak parent motif; reference: not given; reading: higher = stronger binding; endpoint: normalised enrichment score; parent: viral docking peptide; KKVKRRLFETREL
R5A L7A: 0.0896
R5A: 0.0854
K2A: 0.548
T10A: 0.115
F8A: 0.474
V3A: 0.346
E12A: 0.0728
L13A: -0.0714
F8L: 0.357
R5K F8L: -0.0854

Series 2 — technique: RNA Bind-n-Seq; molecule type: RNA; medium: in vitro; tested at: 365 nM; reference: no-protein control; reading: higher = stronger binding; endpoint: RBNS enrichment (R)
Target: RNA binding protein fox-1 homolog 2, RRM domain, GST-SBP tag (RBFOX2, Homo sapiens, UniProt O43251-10, residues 100-194)
Notes: natural RNA segment, single round, ends assumed
Shared flanks, not repeated: GGGAGUUCUACAGUCCGACGAUC … UGGAAUUCUCGGGUGCCAA
Residues (chain): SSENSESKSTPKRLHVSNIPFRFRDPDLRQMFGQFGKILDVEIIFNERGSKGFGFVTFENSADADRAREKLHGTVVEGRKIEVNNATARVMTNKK
UACAUAAAGCUAUGGUUUAAUAGCUGUAUUUAUUAAAGUACCUAUGAAGGGUUUGGGGUAGCAUUCUGUUUUUUCUUUGCUUUUUCAUUUCUAGCAGAGGCAAGAAUACA: 0.528
CAAGCUAUGUCUGGGCUGGUAGUCCCGCCCAUGUGAGGGGCUCUGUUUGCCUUCGCAGCACCCAGCAUCCAAGGACGGACUUCAGGGGACACGUGUAGUGUGUUAAGAUG: 1.46
UUUGGGACACACUGUCCACACUCCACCAAGAGCUACACAGAUUCCCACAUAAAGAUAGUGCCCUAAGUUGUAAUCAGAACACUUGAGCAAGGAGUUAAAUGGAGGAGUAA: 0.346
UCUGGGAUUUUCUUGGUCCUCAUUUUCUGACUCUCUCCCACAACCCACUCCAAAAGGUAGUACCUCAAGGCUUCUCGCACUCCCCUAUUUCCUCGGGAUAUGAGAAGCCU: 0.27
UGGAGGAGUGGUCCCUUAAUGAUCCCCCAAAUAUGUGUGUGAUGUGUUUCUAAACUGCUGCUUUGUCUAUUUCCUGCAUUUUAUAGUGAAACUACUAAACAUAAAUAGAU: 0.511
GAAGACUGGCUCAGCAAGUGGAGGUUUCAAUGUAUUUUUCAGUUGGCUCAUCAGCCAGCAUUGGUGAAUAUUCAGUUUAGGGGAACAGUUCUAGGGAGUGAGACAUUUUU: 0.586
CCUCCAGGCGGGGCCCGGAAGUAGUAGUAGUAGUAGUAGUAGUAGUAGUAGUAGUAGUAGUAGUAGUUCCAUGUAGGGGCAGGAUCCUUUGGAAAAGUACCGUAUGUUCC: 0.547
CCCUCCACUCCUUCCUGCCACCUGCUGCUGCUGCUGCUGCUAAUCUUCAGGGCACUGCUGCUGCCUUUAGUCGCUGAGGAAAAAUAAAGACAAAUGCUGCGCCCUUCCCC: 0.843

Series 3 — technique: RNAcompete; molecule type: RNA; medium: in vitro; tested at: 20 nM; notes: 7-mer, probes averaged, single round; reference: mean of 7-mers; reading: higher = stronger binding; endpoint: 7-mer Z-score
Target: PABPC1L2, full length, GST fusion (mouse, UniProt A0ABA7IW68)
Residues (chain): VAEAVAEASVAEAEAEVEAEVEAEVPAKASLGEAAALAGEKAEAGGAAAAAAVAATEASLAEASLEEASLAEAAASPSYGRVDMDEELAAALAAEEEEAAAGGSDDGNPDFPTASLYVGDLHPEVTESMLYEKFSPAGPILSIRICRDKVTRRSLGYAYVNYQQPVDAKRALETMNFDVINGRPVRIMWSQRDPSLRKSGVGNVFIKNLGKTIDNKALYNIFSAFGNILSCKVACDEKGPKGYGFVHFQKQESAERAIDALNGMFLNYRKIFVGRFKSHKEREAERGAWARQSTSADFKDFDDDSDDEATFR
CAAUCGU: -0.104
UUCCCUU: -0.389
AUAAGAG: 0.138
GAAGCGC: -0.0283
CUGAGAC: -0.119
AACGAGG: 0.2
GAGCUAA: 0.0315
GCCAUGC: -0.0971

Further values, each from its own experiment
C[C@@H]1C[C@@H]([C@H](O)CC2CC(=O)NC(=O)C2)C(=O)[C@@H](C)C1
remaining protein level (Membrane-associated tyrosine- and threonine-specific cdc2-inhibitory kinase (PKMYT1, Homo sapiens, UniProt Q99640); immunoblotting; HCC1569; 50 µg/mL, 8 h): 66.6%

Some of these lines once more (series 3):
AUAAGAG: 0.138
GAAGCGC: -0.0283
CUGAGAC: -0.119
